Experimental data collected from several papers.
Lines come from different studies, so protocols differ. ± marks the error that the study gave.

`C=CC(=O)Nc1cc(Nc2nccc(-c3cn(C)c4ccccc34)n2)c(OC)cc1N(C)CCN(C)C` gave a recovery of 98.2% (storage stability; human dried blood spot; 10 d, -80 °C, LQC level).
Under “fraction excreted via other metabolism”, `CC[C@H](C)[C@@H]([C@@H](CC(=O)N1CCC[C@H]1[C@H](OC)[C@@H](C)C(=O)N[C@@H](Cc1ccccc1)C(=O)NCCCO)OC)N(C)C(=O)[C@@H](NC(=O)[C@H](C(C)C)N(C)C)C(C)C` is recorded as 0.602 (Sprague Dawley rat; intravenous, 120 h, dosed as NaPi2b ADC, recovery-corrected).
`CCCOc1ccc([C@H]2CNC(=O)N2c2ccc3[nH]cnc3c2)cc1` has an AUC(0-24h) of 716 ng·h/mL (human elderly fasted, CSF; oral, 500 mg twice daily tablet, day 11, geometric mean).
With `CO[C@H]1C[C@@H]2CC[C@@H](C)[C@@](O)(O2)C(=O)C(=O)N2CCCC[C@H]2C(=O)O[C@H]([C@H](C)C[C@@H]2CC[C@@H](OC(=O)NCCOCCOCCOCCOCCOCCOCCOCCOCCC(=O)N3CCc4cc(Cn5nc(-c6ccc7oc(N)nc7c6)c6c(N)ncnc65)ccc4C3)[C@H](OC)C2)C[C@@H](O)[C@H](C)/C=C(\C)[C@@H](O)[C@@H](OC)C(=O)[C@H](C)C[C@H](C)/C=C/C=C/C=C/1C` the Tmax was 45 min (human, plasma; intravenous, 3 mg, cycle 1 day 15, arithmetic mean).
With `Cc1cccc(CNC(=O)c2cn(CCNC(=O)c3ccccc3S)c3cc4c(cc3c2=O)OC(F)(F)O4)n1` the bioavailability was 49.6 ± 8% (Sprague-Dawley rat, male, plasma; intramuscular, 10 mg/kg of parent drug).
`CCN1CCN(Cc2ccc(NC(=O)c3ccc(C)c(NC(=O)c4cncc(-c5cccs5)c4)c3)cc2C(F)(F)F)CC1` has an AUC/dose of 0.11 kg·µg·h/mL/mg (C57BL/6 mouse, plasma; intraperitoneal, 30 mg/kg, 0.25 to 8.0 h, single dose).
For `O=C(O)CCCOc1ccc([18F])cc1-c1cc(-c2ccccc2C(F)(F)F)n(-c2ccccc2)n1`, the radioactivity uptake was 3.17 ± 1.02 SUV (gamma counting; male ddY mice, heart; intravenous, 2.1 MBq, 1 min).
For `C=CC[C@@H]1/C=C(\C)C[C@H](C)C[C@H](OC)[C@H]2O[C@@](O)(C(=O)C(=O)N3CCCC[C@H]3C(=O)O[C@H](/C(C)=C/[C@@H]3CC[C@@H](O)[C@H](OC)C3)[C@H](C)[C@@H](O)CC1=O)[C@H](C)C[C@@H]2OC`, “patients with subtherapeutic C0” read 41% (kidney transplant recipients, CYP3A5*3/*3 poor metabolizers, whole blood; oral, dose not given).
`O=C(N[C@@H](CSCc1ccc([N+](=O)[O-])cc1)C(=O)NO)c1ccccc1` — result for serum glutathione: “no effect” (male ICR mice; oral, 200 mg/kg, 28 days, OECD 407 subacute toxicity).
`CC(C)(C(=O)N1CCOc2c(C#N)cncc2C1)C(F)F` — result for “AUClast dose proportionality ratio”: 2.11 (healthy humans, both sexes, plasma; oral, 40 mg single dose, 1.33-fold dose increase; relative to: 40 mg over 30 mg).
For `C=CC(=O)N1CCC(Oc2cc3c(Nc4ccc(Cl)c(Cl)c4F)ncnc3cc2OC)CC1`, the Vz/F was 2.15 ± 1.01 L/kg (Sprague-Dawley rat, male, plasma; oral, 2 mg/kg, together with: vehicle pretreatment).
`O=C(Nc1nc2cccc(-c3ccc(CN4CCS(=O)(=O)CC4)cc3)n2n1)C1CC1`: “treatment-emergent adverse events” 6.7% (item: nausea; human rheumatoid arthritis patients; oral, 150 mg once daily, 4 weeks, regardless of relatedness).
For `O=C(COc1ccc(Cl)cc1)NC12CC(c3nnc([C@H]4C[C@@H](OC(F)(F)F)C4)o3)(C1)C2`, “adverse event incidence” read 14.3% (item: postural dizziness; human; oral, 200 mg once daily, 14 days).
For `Cc1c(C(=O)O)ccc2c3n(nc12)[C@@H]1[C@H](C3)N(CC2CC2)[C@@]2(C(=O)Nc3cc(Cl)ccc32)[C@H]1c1cccc(Cl)c1F`, the plasma concentration was 0.722 µM (female BALB/c nude mice, SJSA-1 xenograft, plasma; oral, 2 mg/kg once daily, 24 h).
For `CC[C@H](C)[C@H](NC(=O)[C@H](Cc1ccccc1)NC(=O)[C@H](CCC(=O)O)NC(=O)[C@H](CCCCNC(=O)COCCOCCNC(=O)COCCOCCNC(=O)CC[C@H](NC(=O)CCCCCCCCCCCCCCCCC(=O)O)C(=O)O)NC(=O)[C@H](C)NC(=O)[C@H](C)NC(=O)[C@H](CCC(N)=O)NC(=O)CNC(=O)[C@H](CCC(=O)O)NC(=O)[C@H](CC(C)C)NC(=O)[C@H](Cc1ccc(O)cc1)NC(=O)[C@H](CO)NC(=O)[C@H](CO)NC(=O)[C@@H](NC(=O)[C@H](CC(=O)O)NC(=O)[C@H](CO)NC(=O)[C@@H](NC(=O)[C@H](Cc1ccccc1)NC(=O)[C@@H](NC(=O)CNC(=O)[C@H](CCC(=O)O)NC(=O)C(C)(C)NC(=O)[C@@H](N)Cc1cnc[nH]1)[C@@H](C)O)[C@@H](C)O)C(C)C)C(=O)N[C@@H](C)C(=O)N[C@@H](Cc1c[nH]c2ccccc12)C(=O)N[C@@H](CC(C)C)C(=O)N[C@H](C(=O)N[C@@H](CCCNC(=N)N)C(=O)NCC(=O)N[C@@H](CCCNC(=N)N)C(=O)NCC(=O)O)C(C)C`, “QTcB change from baseline” read 11.1 ms (12-lead Holter ECG; healthy humans; subcutaneous, 1.5 mg once weekly, 48 h, steady state; relative to: placebo).
The concentration of `O=C(N[C@H](Cc1c[nH]c2ccccc12)C(=O)Nc1ccncc1)c1ccc(N2CCN(c3ccc(F)cc3F)CC2)cc1F` is reported as 45.2 µM (Swiss Webster mouse, female, intestine; oral, 50 mg/kg, 8 h, 20% Kolliphor vehicle).
Under “apparent volume of distribution”, `Cc1nc(-c2cnc(NC(C)C)n(C)c2=O)ccc1Oc1ccnc(-c2cnn(C)c2)c1` is recorded as 1.17 L/kg (DBA/1 mouse, female, plasma; oral, 15 mg/kg, single dose).
`N[C@@H](C[18F])C(=O)O` has a tumour-to-muscle ratio of 1.2 ± 0.27 (PET imaging; female athymic nude mice, U-87 MG xenograft; intravenous, 60 min; relative to: tumour over muscle).

For quick reference, copied from above:
The concentration of `O=C(N[C@H](Cc1c[nH]c2ccccc12)C(=O)Nc1ccncc1)c1ccc(N2CCN(c3ccc(F)cc3F)CC2)cc1F` is reported as 45.2 µM (Swiss Webster mouse, female, intestine; oral, 50 mg/kg, 8 h, 20% Kolliphor vehicle).
`CCCOc1ccc([C@H]2CNC(=O)N2c2ccc3[nH]cnc3c2)cc1` has an AUC(0-24h) of 716 ng·h/mL (human elderly fasted, CSF; oral, 500 mg twice daily tablet, day 11, geometric mean).
`CC(C)(C(=O)N1CCOc2c(C#N)cncc2C1)C(F)F` — result for “AUClast dose proportionality ratio”: 2.11 (healthy humans, both sexes, plasma; oral, 40 mg single dose, 1.33-fold dose increase; relative to: 40 mg over 30 mg).
